Experimental data collected from several papers.
Numbered parts are unrelated; each lists some results of a single study. Substitutions count along the parent as printed.
Chain of UniProt Q8WU08 (whole entry, looked up): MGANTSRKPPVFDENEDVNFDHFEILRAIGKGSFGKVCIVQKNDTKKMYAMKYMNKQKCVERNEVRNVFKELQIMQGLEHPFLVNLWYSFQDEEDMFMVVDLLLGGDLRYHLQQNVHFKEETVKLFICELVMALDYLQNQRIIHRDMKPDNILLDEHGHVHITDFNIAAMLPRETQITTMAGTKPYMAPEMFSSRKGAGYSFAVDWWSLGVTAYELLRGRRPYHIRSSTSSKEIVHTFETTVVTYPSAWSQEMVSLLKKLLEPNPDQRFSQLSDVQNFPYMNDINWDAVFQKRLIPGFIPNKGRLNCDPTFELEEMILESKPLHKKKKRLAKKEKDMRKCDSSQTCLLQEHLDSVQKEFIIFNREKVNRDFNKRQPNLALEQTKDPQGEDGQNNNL
Chain of UniProt P49760 (whole entry, looked up): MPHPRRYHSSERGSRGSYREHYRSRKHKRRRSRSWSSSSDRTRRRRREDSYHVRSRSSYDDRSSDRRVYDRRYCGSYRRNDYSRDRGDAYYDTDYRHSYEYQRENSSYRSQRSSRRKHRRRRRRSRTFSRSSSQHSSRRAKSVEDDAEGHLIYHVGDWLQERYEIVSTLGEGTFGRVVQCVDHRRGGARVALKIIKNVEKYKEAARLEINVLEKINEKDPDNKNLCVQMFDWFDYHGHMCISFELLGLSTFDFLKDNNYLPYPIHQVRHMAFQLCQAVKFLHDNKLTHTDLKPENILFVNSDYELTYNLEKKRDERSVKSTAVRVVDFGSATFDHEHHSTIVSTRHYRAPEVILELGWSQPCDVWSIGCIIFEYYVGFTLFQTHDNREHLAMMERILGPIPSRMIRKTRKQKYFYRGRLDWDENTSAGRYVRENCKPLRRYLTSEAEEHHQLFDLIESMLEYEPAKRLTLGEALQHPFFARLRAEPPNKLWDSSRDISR
Chain of UniProt P17948 (whole entry, looked up): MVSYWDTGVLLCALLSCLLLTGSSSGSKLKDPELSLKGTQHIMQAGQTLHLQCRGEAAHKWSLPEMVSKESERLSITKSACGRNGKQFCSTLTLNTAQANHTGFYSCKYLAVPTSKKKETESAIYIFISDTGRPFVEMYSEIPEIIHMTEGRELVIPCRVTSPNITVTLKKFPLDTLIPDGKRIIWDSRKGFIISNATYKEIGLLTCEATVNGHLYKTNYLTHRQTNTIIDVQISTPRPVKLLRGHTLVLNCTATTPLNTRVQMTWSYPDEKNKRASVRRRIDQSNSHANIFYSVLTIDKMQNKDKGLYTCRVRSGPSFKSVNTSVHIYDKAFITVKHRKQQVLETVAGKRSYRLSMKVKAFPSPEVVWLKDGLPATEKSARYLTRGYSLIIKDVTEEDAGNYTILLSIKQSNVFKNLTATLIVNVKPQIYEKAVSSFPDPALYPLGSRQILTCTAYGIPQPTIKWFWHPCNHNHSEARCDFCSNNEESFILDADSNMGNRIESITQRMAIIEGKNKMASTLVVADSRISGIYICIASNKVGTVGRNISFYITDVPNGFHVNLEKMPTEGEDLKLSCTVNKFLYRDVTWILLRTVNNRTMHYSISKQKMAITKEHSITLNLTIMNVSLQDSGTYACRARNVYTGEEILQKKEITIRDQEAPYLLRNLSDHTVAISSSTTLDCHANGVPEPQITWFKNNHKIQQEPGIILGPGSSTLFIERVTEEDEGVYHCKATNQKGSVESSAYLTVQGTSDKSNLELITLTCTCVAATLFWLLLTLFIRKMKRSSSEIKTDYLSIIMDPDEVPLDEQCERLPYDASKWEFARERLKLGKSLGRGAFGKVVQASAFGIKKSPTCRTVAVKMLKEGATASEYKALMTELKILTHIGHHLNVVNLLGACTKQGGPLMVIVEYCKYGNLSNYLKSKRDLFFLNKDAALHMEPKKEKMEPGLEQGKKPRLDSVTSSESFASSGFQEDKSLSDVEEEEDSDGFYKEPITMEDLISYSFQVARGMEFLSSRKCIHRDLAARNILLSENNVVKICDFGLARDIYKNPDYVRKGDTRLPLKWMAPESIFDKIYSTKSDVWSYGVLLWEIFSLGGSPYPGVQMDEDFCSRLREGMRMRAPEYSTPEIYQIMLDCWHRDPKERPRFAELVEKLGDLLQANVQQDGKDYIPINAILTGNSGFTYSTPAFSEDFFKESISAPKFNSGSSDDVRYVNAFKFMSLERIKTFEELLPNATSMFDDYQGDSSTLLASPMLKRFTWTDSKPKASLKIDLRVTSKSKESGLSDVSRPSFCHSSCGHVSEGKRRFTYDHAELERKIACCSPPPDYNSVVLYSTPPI
Chain of UniProt Q9BUB5 (whole entry, looked up): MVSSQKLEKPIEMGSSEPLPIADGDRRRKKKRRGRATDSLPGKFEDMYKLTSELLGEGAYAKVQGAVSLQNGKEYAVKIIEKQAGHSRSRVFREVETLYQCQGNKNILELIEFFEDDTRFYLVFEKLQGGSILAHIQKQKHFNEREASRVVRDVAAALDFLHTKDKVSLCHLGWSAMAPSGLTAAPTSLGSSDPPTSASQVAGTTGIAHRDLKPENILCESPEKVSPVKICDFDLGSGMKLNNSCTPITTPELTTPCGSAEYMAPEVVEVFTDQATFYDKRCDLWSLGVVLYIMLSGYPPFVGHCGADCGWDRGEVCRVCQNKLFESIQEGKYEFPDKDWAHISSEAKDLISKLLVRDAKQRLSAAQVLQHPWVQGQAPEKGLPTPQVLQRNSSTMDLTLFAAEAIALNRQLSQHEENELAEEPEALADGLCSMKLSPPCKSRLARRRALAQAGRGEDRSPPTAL
Chain of UniProt P52333 (whole entry, looked up): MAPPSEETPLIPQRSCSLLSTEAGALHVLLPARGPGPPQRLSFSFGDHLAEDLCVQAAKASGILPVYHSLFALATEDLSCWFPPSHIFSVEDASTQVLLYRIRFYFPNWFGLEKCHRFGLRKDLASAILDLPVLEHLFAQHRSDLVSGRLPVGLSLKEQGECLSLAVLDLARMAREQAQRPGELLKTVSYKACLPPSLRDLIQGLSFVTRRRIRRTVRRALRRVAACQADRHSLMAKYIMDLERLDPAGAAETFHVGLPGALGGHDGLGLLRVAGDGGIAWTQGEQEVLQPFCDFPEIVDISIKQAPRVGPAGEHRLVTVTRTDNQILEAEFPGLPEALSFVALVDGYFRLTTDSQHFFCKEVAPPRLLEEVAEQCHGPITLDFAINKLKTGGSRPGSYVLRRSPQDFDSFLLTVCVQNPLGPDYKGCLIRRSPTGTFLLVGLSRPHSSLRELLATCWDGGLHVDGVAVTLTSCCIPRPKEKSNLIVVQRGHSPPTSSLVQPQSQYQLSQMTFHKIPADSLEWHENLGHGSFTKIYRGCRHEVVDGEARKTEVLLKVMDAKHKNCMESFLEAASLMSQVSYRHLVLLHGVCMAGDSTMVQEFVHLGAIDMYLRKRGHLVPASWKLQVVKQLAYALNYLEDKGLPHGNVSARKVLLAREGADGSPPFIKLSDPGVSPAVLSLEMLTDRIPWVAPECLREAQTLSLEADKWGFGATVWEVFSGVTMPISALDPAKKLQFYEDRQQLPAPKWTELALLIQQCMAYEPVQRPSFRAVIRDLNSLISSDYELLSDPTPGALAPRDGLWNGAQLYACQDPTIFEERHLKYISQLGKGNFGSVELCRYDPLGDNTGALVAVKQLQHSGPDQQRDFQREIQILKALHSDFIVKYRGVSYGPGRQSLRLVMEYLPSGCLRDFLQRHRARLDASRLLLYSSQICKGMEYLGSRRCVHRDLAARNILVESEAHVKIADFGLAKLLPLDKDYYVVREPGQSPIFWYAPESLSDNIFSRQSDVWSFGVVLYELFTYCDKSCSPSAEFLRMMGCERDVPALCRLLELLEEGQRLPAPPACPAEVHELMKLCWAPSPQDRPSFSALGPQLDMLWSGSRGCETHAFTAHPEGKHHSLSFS

Block 1
SMILES: CN([C@@H]1CCc2c(CC(=O)O)c3ccccc3n2C1)S(=O)(=O)c1ccc(F)cc1
Technique: competition with immobilised ligand
Tested at: 1 µM
| target | test | remaining binding |
| --- | --- | --- |
| FLT3 (Homo sapiens, UniProt P36888, K663Q) | cell-free assay | 100% |
| CDK2 (Homo sapiens, UniProt P24941) | cell-free assay | 100% |
| FLT3 (Homo sapiens, UniProt P36888, D835V) | cell-free assay | 94% |
| CDK11A (Homo sapiens, UniProt Q9UQ88) | binding | 100% |
| STK32A (Homo sapiens, UniProt Q8WU08) | cell-free assay | 100% |
| FLT1 (Homo sapiens, UniProt P17948) | cell-free assay | 100% |
| FLT3 (Homo sapiens, UniProt P36888, D835Y) | cell-free assay | 100% |
| WEE2 (Homo sapiens, UniProt P0C1S8) | cell-free assay | 100% |
| CLK2 (Homo sapiens, UniProt P49760) | cell-free assay | 94% |
| Tyrosine-protein kinase JAK3, JH1 (JAK3, Homo sapiens, UniProt P52333) | cell-free assay | 98% |
| MKNK1 (Homo sapiens, UniProt Q9BUB5) | cell-free assay | 93% |

Block 2
Target: Myc proto-oncogene protein, bHLH-zipper, MAX partner unstated (MYC, Homo sapiens, UniProt P01106, residues 368-449)
Chain of UniProt P01106 (368-449, looked up): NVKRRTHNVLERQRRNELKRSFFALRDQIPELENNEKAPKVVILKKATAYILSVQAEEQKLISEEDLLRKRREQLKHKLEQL
Technique: protein-binding microarray
Form: double-stranded DNA, one strand shown
Sample: in vitro
Tested at: not given
Notes: k-mer, scored over probes, only values ≥0.25
Reading: higher = stronger binding
| Oligonucleotide | E-score |
| --- | --- |
| CATCATGG | 0.292 |
| CGTGGCGA | 0.419 |
| ACACGCCC | 0.326 |
| ATGCCGTA | 0.295 |
| ACGCACGA | 0.408 |
| ACGTGCAC | 0.441 |
| CATGTTAC | 0.281 |
| GTGTAGAA | 0.275 |

Block 3
Target: ATF5, bZIP domain (human)
Technique: DHFR protein complementation
Sample: yeast
Notes: single substitutions, most at no-binding floor
Baseline: wild-type JUN-FOS pair
Reading: higher = stronger binding
Starting sequence: JUN, bZIP domain (human); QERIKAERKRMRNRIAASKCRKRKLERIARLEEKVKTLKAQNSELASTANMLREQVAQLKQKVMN; partner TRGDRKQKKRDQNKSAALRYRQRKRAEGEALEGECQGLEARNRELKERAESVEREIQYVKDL
| Substitution | binding fitness |
| --- | --- |
| A46R | -1.37 natural log |
| Q55P | -1.52 natural log |
| L38K | -1.48 natural log |
| N42Q | -1.42 natural log |
| Q41M | -1.5 natural log |
| A40S | -1.39 natural log |
| E33I | -1.22 natural log |
| E44V | -1.54 natural log |

Block 4
Target: Ribosomal protein S6 kinase alpha-4 (RPS6KA4, Homo sapiens, UniProt O75676)
Chain of UniProt O75676 (whole entry, looked up): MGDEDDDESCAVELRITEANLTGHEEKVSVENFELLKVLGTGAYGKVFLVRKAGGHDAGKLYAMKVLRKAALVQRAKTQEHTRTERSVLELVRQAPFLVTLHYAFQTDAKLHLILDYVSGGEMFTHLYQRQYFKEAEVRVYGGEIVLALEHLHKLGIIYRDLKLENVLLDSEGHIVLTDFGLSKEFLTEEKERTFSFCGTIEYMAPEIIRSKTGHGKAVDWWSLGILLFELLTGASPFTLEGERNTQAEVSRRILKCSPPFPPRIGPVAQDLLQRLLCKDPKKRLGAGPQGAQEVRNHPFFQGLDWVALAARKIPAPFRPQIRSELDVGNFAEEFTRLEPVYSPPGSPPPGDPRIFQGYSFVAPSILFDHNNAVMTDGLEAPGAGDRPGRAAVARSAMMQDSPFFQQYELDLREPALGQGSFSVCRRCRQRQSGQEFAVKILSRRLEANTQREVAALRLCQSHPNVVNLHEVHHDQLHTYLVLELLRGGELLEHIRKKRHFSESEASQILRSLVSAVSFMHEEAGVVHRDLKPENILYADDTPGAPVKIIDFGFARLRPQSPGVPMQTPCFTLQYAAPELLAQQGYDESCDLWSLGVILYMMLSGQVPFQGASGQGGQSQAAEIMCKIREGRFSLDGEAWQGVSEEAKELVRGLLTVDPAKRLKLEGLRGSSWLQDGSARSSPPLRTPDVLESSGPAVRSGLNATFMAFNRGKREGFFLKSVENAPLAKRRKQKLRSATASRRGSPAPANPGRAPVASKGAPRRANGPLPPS
Read-out: enzyme activity
Mode: inhibitor
Tested at: 0.5 µM
Baseline: control
| SMILES | remaining activity |
| --- | --- |
| C#Cc1cccc(Nc2ncnc3cc(OCCOC)c(OCCOC)cc23)c1 | 96% |
| O=C1NC(=O)C(c2cn(CCCn3ccnc3)c3ccccc23)=C1Nc1ccccc1 | 44.4% |
| Nc1ccc2ncnc(NCCc3ccc(Oc4ccccc4)cc3)c2c1 | 107% |
| Cc1ccc(NC(=O)c2ccc(CN3CCN(C)CC3)cc2)cc1Nc1nc(-c2cccnc2)cs1 | 101% |
| CN(C)c1ccc(C=C2C(=O)Nc3ccccc32)cc1 | 95.2% |
| O=C(Nc1cccc(Nc2cc(Nc3cccc(C(F)(F)F)c3)ncn2)c1)C1CC1 | 100% |
| Nc1ncnc2n[nH]c(Nc3ccc(F)cc3)c12 | 114% |
| O=C1NC(=O)C(c2cn(CCCO)c3ncccc23)=C1c1cnccn1 | 101% |
| CC(C)[C@H](CO)Nc1nc(Nc2cc(N)cc(Cl)c2)c2ncn(C(C)C)c2n1 | 89.3% |
| CCOC(=O)c1c(C)[nH]c(/C=C2\C(=O)Nc3ccccc32)c1C | 87% |
| COc1ccc(CNC(=O)Nc2ncc([N+](=O)[O-])s2)cc1 | 101% |
| COc1ccc(OC)c2c(=S)c3ccccc3[nH]c12 | 93.5% |
| N#CC(C#N)=C(N)/C(C#N)=C/c1ccc(O)cc1 | 99.7% |
| Cn1c2ccccc2c2c3c(c4c5ccccc5n(CCC#N)c4c21)CNC3=O | 29.9% |

A few entries again (block 1):
| target | test | remaining binding |
| --- | --- | --- |
| MKNK1 (Homo sapiens, UniProt Q9BUB5) | cell-free assay | 93% |
| FLT3 (Homo sapiens, UniProt P36888, D835Y) | cell-free assay | 100% |
| CDK2 (Homo sapiens, UniProt P24941) | cell-free assay | 100% |
| FLT3 (Homo sapiens, UniProt P36888, D835V) | cell-free assay | 94% |
| CDK11A (Homo sapiens, UniProt Q9UQ88) | binding | 100% |
| Tyrosine-protein kinase JAK3, JH1 (JAK3, Homo sapiens, UniProt P52333) | cell-free assay | 98% |
